Published values from different studies.
Protocols differ between the studies behind these lines.
Target: STE20-like serine/threonine-protein kinase (SLK, Homo sapiens, UniProt Q9H2G2)

The remaining binding of C[C@]1(O)CCCN(c2nc(Nc3ccc(S(=O)(=O)N[C@H]4CC[C@H](CN5CCN(c6ccc(C7CCC(=O)NC7=O)cc6F)CC5)CC4)cc3)ncc2C(F)(F)F)C1 (stereo partly drawn) is reported as 1.5% (binding, competition with immobilised ligand; 1 µM).
CNC(=O)C[C@H](Cc1ccc(C#N)cc1)NC(=O)c1cc(-c2ccc(CN[C@H](C)c3ccc(C)cc3)o2)ccc1Cl: “activity vs control” 116% (enzyme activity, inhibitor; 1 µM).
For CCN1CCN(Cc2ccc(NC(=O)c3ccc(C)c(NC(=O)c4cncc(-c5cccs5)c4)c3)cc2C(F)(F)F)CC1, the remaining binding was 23% (binding, competition with immobilised ligand; 1 µM).
With Cc1ccc(C(=O)Nc2ccc(CN3CCN(C)CC3)c(C(F)(F)F)c2)cc1C#Cc1cnc2cccnn12 the upper asymptote was 52.4 (target engagement, NanoBRET; human cells).
With CNC(=O)C1CCN(c2cc(C)c(F)cc2NC(=O)c2ccc(-c3cc(O)ccc3C)c(C)c2)CC1 the remaining binding was 100% (binding, competition with immobilised ligand; 1 µM).
The remaining binding of COc1c(Cl)cccc1Nc1c(-c2ccncc2C#C[C@@]2(C)CCCN2C(=O)/C=C/CN(C)C)[nH]c2c1C(=O)NCC2 is reported as 39% (binding, competition with immobilised ligand; 3 µM).
For CC(C)=CC1OC(C)(C)C2C=C3C(=O)C(Cl)=CC(O)C3C3C(O)C4OC4C(=O)C132 (stereo not drawn), the remaining binding was 96% (cell-free assay, competition with immobilised ligand; 10 µM).
The inhibition of NC(=O)C[C@H]1CCc2sc3ncnc(O[C@H]4CC[C@H](N5CCOCC5)CC4)c3c21 is reported as 5% (enzyme activity, inhibitor; 10 µM).
Nc1ncc(-c2cc(-c3cnn(CC(F)(F)F)c3)ncc2F)nc1C(=O)NC1CNCC(F)C1 (stereo not drawn) has a remaining activity of 88.9% (enzyme activity; 1 µM; relative to: DMSO control).
With COc1cc(Nc2nc(C)cc(-c3cnn4nc(OC)ccc34)n2)cc(C(F)(F)F)c1 the remaining binding was 88% (binding, competition with immobilised ligand; 1 µM).
The inhibition of C=CC(=O)Nc1cccc(-c2cnc3[nH]cc(C(=O)NC(C)(C)C)c3n2)c1 is reported as 9% (enzyme activity, inhibitor; 0.1 µM).
CN1CCN(Cc2ccc(-c3ccc(CO[C@H]4CCC[C@@H]4NC(=O)c4cc(-c5cnn(C)c5)cnc4N)cc3)cc2)CC1 has an inhibition of 7% (enzyme activity, inhibitor; 0.1 µM).
CN1CC[C@@H](COc2cnc(C#N)cc2-c2ccn3nc(NC(=O)C4CC4)cc3c2)C1 has an inhibition of 0% (enzyme activity, inhibitor; 1 µM).
C=CC(=O)N1Cc2nc(-c3cc(-c4cc(Cl)cnc4Cl)c(F)cc3F)n(-c3ccncn3)c2C1 gave an inhibition of 0.1% (cell-free assay, inhibitor; 1 µM).
With Cc1cccc(O[C@H]2CCC[C@@H](C(C)CNCc3ccncc3)C2)c1 (relative stereo) the inhibition was -6% (enzyme activity, inhibitor; 10 µM).

Excerpt of the above:
With Cc1ccc(C(=O)Nc2ccc(CN3CCN(C)CC3)c(C(F)(F)F)c2)cc1C#Cc1cnc2cccnn12 the upper asymptote was 52.4 (target engagement, NanoBRET; human cells).
With CNC(=O)C1CCN(c2cc(C)c(F)cc2NC(=O)c2ccc(-c3cc(O)ccc3C)c(C)c2)CC1 the remaining binding was 100% (binding, competition with immobilised ligand; 1 µM).
